# Measurements gathered from unrelated publications.
# Each line is one published result; not all experiments were run side by side.
# Chain of UniProt Q12809 (whole entry, looked up): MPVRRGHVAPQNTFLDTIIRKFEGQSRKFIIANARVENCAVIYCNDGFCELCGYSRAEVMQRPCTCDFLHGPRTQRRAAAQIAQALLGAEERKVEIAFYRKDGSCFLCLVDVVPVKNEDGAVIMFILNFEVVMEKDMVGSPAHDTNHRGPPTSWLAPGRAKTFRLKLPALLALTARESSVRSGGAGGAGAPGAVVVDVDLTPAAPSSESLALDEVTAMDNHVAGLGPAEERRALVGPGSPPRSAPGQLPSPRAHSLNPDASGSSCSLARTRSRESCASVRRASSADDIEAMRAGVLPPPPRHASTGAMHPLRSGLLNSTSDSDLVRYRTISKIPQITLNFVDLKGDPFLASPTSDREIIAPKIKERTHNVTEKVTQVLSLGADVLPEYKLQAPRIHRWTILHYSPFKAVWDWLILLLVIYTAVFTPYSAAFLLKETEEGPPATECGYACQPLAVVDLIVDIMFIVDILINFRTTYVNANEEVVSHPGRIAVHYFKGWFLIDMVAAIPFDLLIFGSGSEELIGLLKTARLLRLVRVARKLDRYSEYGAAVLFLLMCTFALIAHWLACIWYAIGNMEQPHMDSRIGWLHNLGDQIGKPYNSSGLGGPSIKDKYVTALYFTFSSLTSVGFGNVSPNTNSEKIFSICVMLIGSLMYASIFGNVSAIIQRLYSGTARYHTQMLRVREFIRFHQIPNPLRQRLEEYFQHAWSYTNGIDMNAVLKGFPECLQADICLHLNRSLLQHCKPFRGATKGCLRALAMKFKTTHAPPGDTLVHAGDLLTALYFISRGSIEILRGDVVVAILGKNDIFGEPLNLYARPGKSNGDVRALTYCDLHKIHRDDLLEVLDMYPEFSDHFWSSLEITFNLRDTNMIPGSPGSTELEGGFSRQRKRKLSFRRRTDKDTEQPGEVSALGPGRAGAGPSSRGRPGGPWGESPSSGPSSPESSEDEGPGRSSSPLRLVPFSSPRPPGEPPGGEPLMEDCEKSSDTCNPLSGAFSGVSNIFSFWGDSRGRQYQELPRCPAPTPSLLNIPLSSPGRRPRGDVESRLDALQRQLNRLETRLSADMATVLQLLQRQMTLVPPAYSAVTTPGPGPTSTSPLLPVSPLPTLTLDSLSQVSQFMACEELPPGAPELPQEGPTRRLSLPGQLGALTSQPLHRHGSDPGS
SMILES,tested on,assay,test system,setting,scale,quantity,value
O=C(N[C@@H](CC1CCCCC1)C(=O)N[C@@H](C[C@@H]1CCNC1=O)C(O)S(=O)(=O)O)OCc1cccc(Cl)c1 (stereo partly drawn),feline coronavirus,,"CRFK, FIPV-1146",,baseline: CC50 over EC50,therapeutic index,2760
CCCCNC(=N)c1ccc(OCCSCCOc2ccc(C(=N)NCCCC)cc2)cc1,"Voltage-gated inwardly rectifying potassium channel KCNH2 (KCNH2, Homo sapiens, UniProt Q12809)","inhibitor, Western blot",HEK293 expressing KCNH2,"0.5 to 20 µM, 24 h",,protein maturation,decreased
COc1ccc(CNc2ccc(-c3ccn4c(CC5CC5)nnc4c3C(F)(F)F)cc2F)cn1,,,"rat Sprague Dawley male, brain","subcutaneous, 10 mg/kg, 4 h",,brain concentration,307 ng/g
CC[C@H](C)[C@@H]1NC(=O)[C@H](C(C)C)NC(=O)[C@H](Cc2ccccc2)NC(=O)[C@H](Cc2ccccc2)NC(=O)[C@@H]2CCCN2C(=O)[C@@H]2CCCN2C(=O)[C@H]([C@@H](C)CC)NC(=O)[C@H](CC(C)C)NC(=O)[C@H](CCSC)NC1=O,MCF7,LDH release,,"200 µg/mL, 48 h",,cytotoxicity,8%
O=C[C@H](C[C@@H]1CCNC1=O)NC(=O)[C@H](CC1CCCCC1)NC(=O)OCc1cccc(Cl)c1,feline coronavirus,,"CRFK, FIPV-1146",,baseline: CC50 over EC50,therapeutic index,1280
FC(F)(F)c1c(CN2CCC(c3ccccc3)CC2)ccn2c(CC3CC3)nnc12,,,human liver microsomes,"5 µM, 15 min",,compound metabolized,11%
CCCCCC(=O)OCn1cc(F)c(=O)[nH]c1=O,Caco-2 without butyric acid induction,,,concentration not given,baseline: butyric acid-induced cells,uptake,no effect
O=C[C@H](C[C@@H]1CCNC1=O)NC(=O)[C@H](CC1CCCCC1)NS(=O)(=O)c1ccc(Cl)cc1,feline coronavirus,,"CRFK, FIPV-1146",,baseline: CC50 over EC50,therapeutic index,> 385
CCCCn1ccn2c(-c3ccc4[nH]ccc4c3)c(C)nc2c1=O,,,"male Sprague Dawley rat, brain","oral, 10 mg/kg, 1 h",,brain concentration,not detected
CC[C@H](C)[C@@H]1NC(=O)[C@H](CC(C)C)NC(=O)[C@H](Cc2ccccc2)NC(=O)[C@H](Cc2ccccc2)NC(=O)[C@@H]2CCCN2C(=O)[C@@H]2CCCN2C(=O)[C@H](C(C)C)NC(=O)[C@H](CC(C)C)NC(=O)[C@H]([C@@H](C)CC)NC1=O,SK-BR-3,LDH release,,"25 µg/mL, 24 h",,cytotoxicity,9%
O=C(N[C@@H](CC1CCCCC1)C(=O)N[C@@H](C[C@@H]1CCNC1=O)C(O)S(=O)(=O)O)OCc1ccccc1 (stereo partly drawn),CRFK,cell growth or viability,,36 h,,CC50,> 150 µM
FC(F)(F)c1c(-c2ccc(NC3CCOCC3)c(Cl)c2)ccn2c(CC3CC3)nnc12,,,rat liver microsomes,"5 µM, 15 min",,compound metabolized,73%

# Excerpt of the above:
SMILES,tested on,assay,test system,setting,scale,quantity,value
CCCCn1ccn2c(-c3ccc4[nH]ccc4c3)c(C)nc2c1=O,,,"male Sprague Dawley rat, brain","oral, 10 mg/kg, 1 h",,brain concentration,not detected
CCCCCC(=O)OCn1cc(F)c(=O)[nH]c1=O,Caco-2 without butyric acid induction,,,concentration not given,baseline: butyric acid-induced cells,uptake,no effect
